{"data": "Published values gathered from unrelated publications", "note": "Each numbered part is a random draw from the data of one study; scales do not carry over between parts. Substitutions count along the parent as printed."}
{"data": "Block 1", "target": "Sal-like protein 4, full length isoform A (SALL4, Homo sapiens, UniProt Q9UJQ4, residues 1-1053)", "technique": "universal PBM", "molecule type": "double-stranded DNA, one strand shown", "matrix": "in vitro", "concentration": "600 nM", "notes": "8-mer, flanks averaged, mean of replicates", "direction": "higher = stronger binding", "chain of UniProt Q9UJQ4 (whole entry, looked up)": "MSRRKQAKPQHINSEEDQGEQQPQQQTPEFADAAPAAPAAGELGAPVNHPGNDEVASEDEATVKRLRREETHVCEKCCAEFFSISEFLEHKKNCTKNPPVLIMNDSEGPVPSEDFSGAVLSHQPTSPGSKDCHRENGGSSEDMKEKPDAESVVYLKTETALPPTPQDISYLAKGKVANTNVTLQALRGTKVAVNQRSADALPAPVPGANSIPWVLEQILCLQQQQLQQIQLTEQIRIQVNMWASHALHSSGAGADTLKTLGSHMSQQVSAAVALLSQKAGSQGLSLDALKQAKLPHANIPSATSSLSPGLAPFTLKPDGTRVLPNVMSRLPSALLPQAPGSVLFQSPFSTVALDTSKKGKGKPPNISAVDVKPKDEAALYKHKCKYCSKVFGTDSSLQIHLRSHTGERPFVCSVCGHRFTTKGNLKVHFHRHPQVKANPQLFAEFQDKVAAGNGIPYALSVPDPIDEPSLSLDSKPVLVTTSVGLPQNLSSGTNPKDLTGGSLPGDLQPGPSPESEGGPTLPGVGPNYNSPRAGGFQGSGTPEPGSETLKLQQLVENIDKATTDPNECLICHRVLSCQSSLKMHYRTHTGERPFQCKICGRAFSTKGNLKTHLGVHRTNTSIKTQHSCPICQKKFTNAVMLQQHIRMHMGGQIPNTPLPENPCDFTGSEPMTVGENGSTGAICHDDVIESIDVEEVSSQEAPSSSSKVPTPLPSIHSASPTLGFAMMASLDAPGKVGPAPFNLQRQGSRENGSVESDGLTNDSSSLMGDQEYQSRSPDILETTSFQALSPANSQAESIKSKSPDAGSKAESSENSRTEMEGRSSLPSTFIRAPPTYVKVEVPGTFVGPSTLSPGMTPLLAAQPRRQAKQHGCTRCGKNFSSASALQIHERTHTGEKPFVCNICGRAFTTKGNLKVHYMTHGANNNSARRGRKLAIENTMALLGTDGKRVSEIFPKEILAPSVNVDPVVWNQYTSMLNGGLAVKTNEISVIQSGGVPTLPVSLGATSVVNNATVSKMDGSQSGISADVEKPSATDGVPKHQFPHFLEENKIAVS"}
{"Oligonucleotide": "ACTGTCGC", "E-score": -0.161}
{"Oligonucleotide": "GCCTCGAA", "E-score": -0.156}
{"Oligonucleotide": "AAGTCTGC", "E-score": -0.0799}
{"Oligonucleotide": "CTGTTCTC", "E-score": -0.0875}
{"Oligonucleotide": "CTACGACC", "E-score": -0.155}
{"Oligonucleotide": "GCAACGCA", "E-score": -0.204}
{"Oligonucleotide": "CTCCCCAA", "E-score": -0.154}
{"Oligonucleotide": "ACTTGAGG", "E-score": -0.155}
{"Oligonucleotide": "CACGGTGA", "E-score": -0.0931}
{"Oligonucleotide": "CTACGGAG", "E-score": -0.133}
{"Oligonucleotide": "GCAACTCC", "E-score": -0.195}
{"Oligonucleotide": "AGCACTTC", "E-score": 0.0571}
{"Oligonucleotide": "CATGCTCC", "E-score": -0.218}
{"Oligonucleotide": "CGCCGGAC", "E-score": -0.368}
{"Oligonucleotide": "GATAGTTA", "E-score": 0.195}
{"Oligonucleotide": "ATTGTGCG", "E-score": 0.0426}
{"Oligonucleotide": "CATCGAGC", "E-score": -0.129}
{"data": "Block 2", "target": "Ras GTPase-activating protein-binding protein 1, RRM domain (G3BP1, Homo sapiens, UniProt Q13283)", "technique": "RNA Bind-n-Seq", "molecule type": "RNA", "matrix": "in vitro", "concentration": "1 µM", "notes": "whole 134-nt RNA, ends assumed", "with": "150 mM KCl", "relative to": "input library", "direction": "higher = stronger binding", "all sequences stand within": "GGGAGUUCUACAGUCCGACGAUC … UGGAAUUCUCGGGUGUCAAGG", "chain of UniProt Q13283 (whole entry, looked up)": "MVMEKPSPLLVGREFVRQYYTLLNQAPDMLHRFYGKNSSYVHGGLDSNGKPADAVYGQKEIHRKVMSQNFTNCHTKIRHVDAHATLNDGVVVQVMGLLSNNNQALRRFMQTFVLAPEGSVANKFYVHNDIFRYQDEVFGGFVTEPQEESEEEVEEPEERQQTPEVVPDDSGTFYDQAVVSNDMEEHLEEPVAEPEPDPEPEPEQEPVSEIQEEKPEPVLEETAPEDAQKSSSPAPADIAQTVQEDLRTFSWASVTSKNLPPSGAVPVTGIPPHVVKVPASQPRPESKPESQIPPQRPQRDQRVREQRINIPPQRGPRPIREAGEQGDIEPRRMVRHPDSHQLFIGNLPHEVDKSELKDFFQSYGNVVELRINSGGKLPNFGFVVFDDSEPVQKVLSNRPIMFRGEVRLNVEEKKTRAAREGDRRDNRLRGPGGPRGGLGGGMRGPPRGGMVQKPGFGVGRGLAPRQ"}
{"Oligonucleotide": "GUCCUGUGCUACACAUCGUAUGUACCGAAUCGGGGUUUUUGGGGUUUUUGGGUUUUUGGAAAGUAUUAUGUUACGCCGUUCGGAUCUGCA", "log2 enrichment": -0.303}
{"Oligonucleotide": "CCUCAAGUCCUGUGCUACACAUCGUAUGUACCGAAUCGGAGGUGGUUUUUGGAAAGUAUUAUGUUACGCCGUUCGGAUCUGCACUUCCAG", "log2 enrichment": -0.252}
{"Oligonucleotide": "UCCUGUGCUACACAUCGUAUGUACCGAAUCAAAGUGUGUGUGUGUGUGUGUGUGUGAAAAAAGUAUUAUGUUACGCCGUUCGGAUCUGCA", "log2 enrichment": 0.198}
{"Oligonucleotide": "CCUGUGCUACACAUCGUAUGUACCGAAUCGGGGAAAAAAAGGGGAAAAAAAGGGGAGGGGAAAGUAUUAUGUUACGCCGUUCGGAUCUGC", "log2 enrichment": 0.363}
{"Oligonucleotide": "UGUGAGGUGGAUUUUGUUUAUUUUUUUAGCUCAUUUCCAGGGGUGGGAAUUUUUUUUUAAUAUGUGUCAUGAAUAAAGUUGUUUUUGAAA", "log2 enrichment": 1.38}
{"Oligonucleotide": "GCAGGAAGUAAAAACAAAUGGAAAUGCUUCGGAUAGUGGCAGGGGCGGGGGUUGCUAAGGAAAGGGUGGGAUGGGAGUGGGUAAAGAGUU", "log2 enrichment": 0.617}
{"Oligonucleotide": "CAAGUCCUGUGCUACACAUCGUAUGUACCGAAUCGGGGUGGGGUUUGGGGUGGGGAAAGUAUUAUGUUACGCCGUUCGGAUCUGCACUUC", "log2 enrichment": 1.18}
{"Oligonucleotide": "ACCAUGCAGGUGGGCAACUUUGGGAAGUGGGGCAAGGGGGGGAUAGGGAGGGGGGUAACACUUUGGGAACAGGUGGUCCCAGGUCGUUUC", "log2 enrichment": -0.544}
{"Oligonucleotide": "CAAGUCCUGUGCUACACAUCGUAUGUACCGAAUCGGGGAAAGGGAAAGGGAAAGGAAAGUAUUAUGUUACGCCGUUCGGAUCUGCACUUC", "log2 enrichment": -0.149}
{"Oligonucleotide": "GCAGGAAGUAAAAACAAAUGGAAAUGCUUCGGAUAGUGGCAGGGGUGGGGGUUGCUAAGGAAAGGGUGGGAUGGGAGUGGGUAAAGAAAU", "log2 enrichment": 1.28}
{"data": "Block 3", "target": "CCND2, cyclin fold, Cln2 fusion (human)", "technique": "yeast growth competition, sequencing", "matrix": "yeast", "notes": "weak parent motif", "relative to": "not given", "direction": "higher = stronger binding", "parent": "SCAPER docking peptide (human); SNARRSLNFGGST"}
{"Substitution": "SNKRRSLNFGGST [A3K]", "normalised enrichment score": 0.109}
{"Substitution": "SPARRSLNFGGST [N2P]", "normalised enrichment score": 0.459}
{"Substitution": "SNAPRSLNFGGST [R4P]", "normalised enrichment score": -0.255}
{"Substitution": "SNGRRSLNFGGST [A3G]", "normalised enrichment score": -0.2}
{"Substitution": "SNARRFLNFGGST [S6F]", "normalised enrichment score": 0.977}
{"Substitution": "SNARRDLNFGGST [S6D]", "normalised enrichment score": 0.191}
{"Substitution": "SNARRSLNTGGST [F9T]", "normalised enrichment score": 0.267}
{"Substitution": "SNARRSLNGGGST [F9G]", "normalised enrichment score": -0.334}
{"Substitution": "SNARFSLNFGGST [R5F]", "normalised enrichment score": 0.42}
{"Substitution": "SNARRSLNFGEST [G11E]", "normalised enrichment score": 0.159}
{"Substitution": "SNARMSLNFGGST [R5M]", "normalised enrichment score": 0.63}
{"Substitution": "SNARRSKNFGGST [L7K]", "normalised enrichment score": 0.242}
{"data": "Block 4", "target": "Protein C-ets-1 (ETS1, Homo sapiens, UniProt P14921, residues 1-441, Y397A, full length assumed)", "technique": "protein-binding microarray", "molecule type": "double-stranded DNA, one strand shown", "matrix": "in vitro", "concentration": "not given", "notes": "k-mer, scored over probes, only values ≥0.25", "direction": "higher = stronger binding", "Construct (chain)": "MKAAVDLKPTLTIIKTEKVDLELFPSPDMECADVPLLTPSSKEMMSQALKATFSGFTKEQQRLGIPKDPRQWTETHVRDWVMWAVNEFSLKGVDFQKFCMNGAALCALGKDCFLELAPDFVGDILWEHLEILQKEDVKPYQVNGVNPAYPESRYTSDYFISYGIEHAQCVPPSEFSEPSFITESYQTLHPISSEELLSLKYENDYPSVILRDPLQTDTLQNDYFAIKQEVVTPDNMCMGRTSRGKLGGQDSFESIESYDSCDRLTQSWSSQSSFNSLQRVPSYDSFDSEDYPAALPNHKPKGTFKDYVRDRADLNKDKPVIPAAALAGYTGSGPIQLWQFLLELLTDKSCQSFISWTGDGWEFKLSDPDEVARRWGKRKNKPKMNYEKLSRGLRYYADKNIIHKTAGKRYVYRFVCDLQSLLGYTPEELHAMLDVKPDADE"}
{"Oligonucleotide": "TGCGGAAA", "E-score": 0.286}
{"Oligonucleotide": "ATTTACCG", "E-score": 0.299}
{"Oligonucleotide": "ATTGTCAA", "E-score": 0.415}
{"Oligonucleotide": "GCCGGAAA", "E-score": 0.384}
{"Oligonucleotide": "ATTTGTTG", "E-score": 0.284}
{"Oligonucleotide": "AGGAAGTA", "E-score": 0.362}
{"Oligonucleotide": "ACGACAAC", "E-score": 0.329}
{"Oligonucleotide": "GTACAAAA", "E-score": 0.29}
{"Oligonucleotide": "ATCAACAA", "E-score": 0.303}
{"Oligonucleotide": "CGGATGCA", "E-score": 0.282}
{"Oligonucleotide": "GATTGTCA", "E-score": 0.349}
{"Oligonucleotide": "AACCAACA", "E-score": 0.271}
{"Oligonucleotide": "TCGTACAA", "E-score": 0.303}
{"Oligonucleotide": "ATTGTTGG", "E-score": 0.272}
{"Oligonucleotide": "ACAAATAT", "E-score": 0.319}
{"Oligonucleotide": "ACGACAAA", "E-score": 0.415}
{"data": "Block 5", "target": "UBE2S UBC core domain (UniProt Q16763)", "technique": "yeast two-hybrid", "matrix": "yeast", "notes": "mostly zero background", "relative to": "not given", "direction": "higher = stronger interaction", "B1": "RNF122 RING domain (UniProt Q9H9V4); chain AKKLQLYGQTCAVCLEDFKGKDELGVLPCQHAFHRKCLVKWLEVRCVCPMCNKPIASPSEAT", "B2": "TRIM60 RING domain (UniProt Q495X7); chain ALVNLQEESSCPICLEYLKDPVTINCGHNFCRSCLSVSWKDLDDTFPCPVCRFCFPYKSFRR", "B3": "RNF187 RING domain (UniProt Q5TA31); chain ALPAGPAEAACALCQRAPREPVRADCGHRFCRACVVRFWAEEDGPFPCPECADDCWQRAVEP", "B4": "TRIM22 RING domain (UniProt Q8IYM9); chain VKVDIEKEVTCPICLELLTEPLSLDCGHSFCQACITAKIKESVIISRGESSCPVCQTRFQPGNLRP", "B5": "TRIM54 RING domain (UniProt Q9BYV2); chain SMDNLEKQLICPICLEMFSKPVVILPCQHNLCRKCANDVFQASNPLWQSRGSTTVSSGGRFRCPSCRHEVVLDRHGV", "Residues (chain)": "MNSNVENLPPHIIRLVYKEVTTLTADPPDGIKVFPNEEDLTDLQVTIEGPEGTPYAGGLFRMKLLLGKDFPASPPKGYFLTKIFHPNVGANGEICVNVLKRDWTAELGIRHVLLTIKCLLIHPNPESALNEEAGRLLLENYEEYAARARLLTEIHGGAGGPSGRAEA"}
{"Molecule": "B1 (RNF122 RING domain)", "lacZ reporter activity": 0}
{"Molecule": "B2 (TRIM60 RING domain)", "lacZ reporter activity": 0}
{"Molecule": "AEADPLGRFTCPVCLEVYEKPVQVPCGHVFCSACLQECLKPKKPVCGVCRSALAPGVRAV (RNF114 RING domain (UniProt Q9Y508))", "lacZ reporter activity": 0}
{"Molecule": "LDAASGHPLVCPLCHGQYERPCLLDCFHDFCTGCLRGRATDGRLSCPLCQHQTLVKGPSG (Rnf207 RING domain (UniProt Q3V3A7))", "lacZ reporter activity": 0}
{"Molecule": "B3 (RNF187 RING domain)", "lacZ reporter activity": 0}
{"Molecule": "YPEEVDDDLICHICLQALLDPLDTPCGHTYCTLCLTNFLVEKDFCPMDRKPLVLQHCKK (LNX1 RING domain (UniProt Q8TBB1))", "lacZ reporter activity": 0}
{"Molecule": "B4 (TRIM22 RING domain)", "lacZ reporter activity": 0}
{"Molecule": "B5 (TRIM54 RING domain)", "lacZ reporter activity": 0}
{"data": "Block 6", "target": "ABI1, truncated, D143A, DHFR fusion (Arabidopsis thaliana)", "technique": "DHFR PCA, deep sequencing", "matrix": "yeast", "notes": "methotrexate growth selection, single substitutions", "with": "(+)-ABA 0.032 µM", "relative to": "wild-type fitted maximum", "direction": "higher = stronger binding", "parent": "PYL1, truncated, DHFR fusion (Arabidopsis thaliana); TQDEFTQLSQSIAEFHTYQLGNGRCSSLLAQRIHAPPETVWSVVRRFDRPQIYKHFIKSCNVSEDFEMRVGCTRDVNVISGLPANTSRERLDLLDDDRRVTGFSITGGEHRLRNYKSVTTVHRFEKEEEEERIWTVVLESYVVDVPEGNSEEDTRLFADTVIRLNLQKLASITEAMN"}
{"Substitution": "D48T", "relative binding score [%]": 4.23}
{"Substitution": "Q167T", "relative binding score [%]": 8.7}
{"Substitution": "K54T", "relative binding score [%]": -5.72}
{"Substitution": "T101M", "relative binding score [%]": 64.9}
{"Substitution": "V100R", "relative binding score [%]": 2.34}
{"Substitution": "L20R", "relative binding score [%]": 31}
{"Substitution": "E129M", "relative binding score [%]": 13.6}
{"Substitution": "L166A", "relative binding score [%]": 3.59}
{"Substitution": "E139V", "relative binding score [%]": 4.24}
{"Substitution": "T120K", "relative binding score [%]": 1.34}
{"Substitution": "G108K", "relative binding score [%]": -6.78}
{"Substitution": "H34I", "relative binding score [%]": 17.8}
{"Substitution": "T173R", "relative binding score [%]": -1.72}
{"Substitution": "L8S", "relative binding score [%]": 5.54}
{"Substitution": "P146L", "relative binding score [%]": 26.6}
{"data": "Further values, each from its own experiment"}
{"Molecule": "HADHA (Homo sapiens, UniProt P40939)", "partner": "ATP5ME (Homo sapiens, UniProt P56385)", "technique": "cross-linking MS", "matrix": "cells", "with": "BSPNO", "measurement": "cross-linked residues", "result": "K625 to M1"}
